Results of several laboratories.
Protocols differ between the studies behind these lines. “And” joins repeats or separate records; there may be more than shown. Numbers after ± are the reported error.
CXCR4: C-X-C chemokine receptor type 4 (CXCR4, Homo sapiens, UniProt P61073)
Sequence of UniProt P61073 (whole entry, looked up): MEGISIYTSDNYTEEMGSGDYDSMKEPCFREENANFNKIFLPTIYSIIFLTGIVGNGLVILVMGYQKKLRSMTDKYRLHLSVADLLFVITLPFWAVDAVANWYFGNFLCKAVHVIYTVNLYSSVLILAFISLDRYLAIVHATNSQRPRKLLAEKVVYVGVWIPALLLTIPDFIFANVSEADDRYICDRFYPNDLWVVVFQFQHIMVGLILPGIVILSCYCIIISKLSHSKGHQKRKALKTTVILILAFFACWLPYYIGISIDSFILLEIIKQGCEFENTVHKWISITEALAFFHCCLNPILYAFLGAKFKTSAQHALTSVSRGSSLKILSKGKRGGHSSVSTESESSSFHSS
Sequence of UniProt Q9NTG7 (whole entry, looked up): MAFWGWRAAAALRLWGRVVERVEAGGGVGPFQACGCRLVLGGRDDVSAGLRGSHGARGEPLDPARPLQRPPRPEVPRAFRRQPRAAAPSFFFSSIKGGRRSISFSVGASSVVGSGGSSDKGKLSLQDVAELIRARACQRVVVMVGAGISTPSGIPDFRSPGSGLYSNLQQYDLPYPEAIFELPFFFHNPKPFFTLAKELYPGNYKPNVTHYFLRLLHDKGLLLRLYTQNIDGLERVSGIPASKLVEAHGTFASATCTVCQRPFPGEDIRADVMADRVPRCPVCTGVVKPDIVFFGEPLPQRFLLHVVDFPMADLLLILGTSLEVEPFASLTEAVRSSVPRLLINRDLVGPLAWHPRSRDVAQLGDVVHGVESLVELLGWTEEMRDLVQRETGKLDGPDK
Sequence of UniProt P09874 (whole entry, looked up): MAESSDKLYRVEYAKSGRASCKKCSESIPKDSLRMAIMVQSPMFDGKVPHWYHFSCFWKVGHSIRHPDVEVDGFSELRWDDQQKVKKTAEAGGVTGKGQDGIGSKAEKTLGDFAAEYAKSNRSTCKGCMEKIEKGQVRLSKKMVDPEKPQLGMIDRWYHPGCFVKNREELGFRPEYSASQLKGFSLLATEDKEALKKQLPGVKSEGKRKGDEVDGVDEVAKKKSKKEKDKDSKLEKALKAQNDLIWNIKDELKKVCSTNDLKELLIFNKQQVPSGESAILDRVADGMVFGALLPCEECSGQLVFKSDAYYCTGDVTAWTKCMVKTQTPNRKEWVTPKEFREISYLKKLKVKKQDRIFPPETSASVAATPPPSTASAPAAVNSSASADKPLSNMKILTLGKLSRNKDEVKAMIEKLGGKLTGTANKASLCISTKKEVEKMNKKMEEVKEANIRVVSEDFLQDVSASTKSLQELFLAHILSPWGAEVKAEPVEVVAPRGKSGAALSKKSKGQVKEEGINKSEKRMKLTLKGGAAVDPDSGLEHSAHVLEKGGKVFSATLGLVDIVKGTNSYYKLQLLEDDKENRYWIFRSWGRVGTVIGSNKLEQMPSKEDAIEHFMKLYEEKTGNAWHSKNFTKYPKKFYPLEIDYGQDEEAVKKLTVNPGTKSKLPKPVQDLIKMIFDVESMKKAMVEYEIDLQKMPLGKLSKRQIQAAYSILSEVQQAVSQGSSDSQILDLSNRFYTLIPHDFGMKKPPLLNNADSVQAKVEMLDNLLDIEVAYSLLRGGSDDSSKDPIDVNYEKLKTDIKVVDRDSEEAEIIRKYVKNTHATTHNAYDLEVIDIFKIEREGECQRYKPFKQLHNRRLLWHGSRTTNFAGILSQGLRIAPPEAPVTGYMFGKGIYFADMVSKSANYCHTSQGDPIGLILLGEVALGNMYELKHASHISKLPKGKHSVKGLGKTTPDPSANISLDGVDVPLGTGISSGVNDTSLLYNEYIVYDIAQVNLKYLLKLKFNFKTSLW
Sequence of UniProt P05177 (whole entry, looked up): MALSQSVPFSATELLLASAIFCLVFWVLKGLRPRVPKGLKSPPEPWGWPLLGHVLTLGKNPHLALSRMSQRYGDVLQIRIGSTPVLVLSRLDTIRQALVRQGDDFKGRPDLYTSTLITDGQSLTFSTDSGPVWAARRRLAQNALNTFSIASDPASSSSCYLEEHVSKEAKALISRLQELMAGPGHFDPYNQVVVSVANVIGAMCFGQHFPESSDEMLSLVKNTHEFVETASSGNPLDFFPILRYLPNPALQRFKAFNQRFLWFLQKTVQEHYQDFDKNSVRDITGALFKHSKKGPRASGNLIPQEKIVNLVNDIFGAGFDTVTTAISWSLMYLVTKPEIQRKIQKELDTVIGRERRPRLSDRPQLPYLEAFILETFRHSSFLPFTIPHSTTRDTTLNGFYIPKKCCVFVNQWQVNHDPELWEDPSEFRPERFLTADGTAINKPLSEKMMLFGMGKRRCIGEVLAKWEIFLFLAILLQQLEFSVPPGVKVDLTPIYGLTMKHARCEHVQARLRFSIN
Sequence of UniProt O00167 (whole entry, looked up): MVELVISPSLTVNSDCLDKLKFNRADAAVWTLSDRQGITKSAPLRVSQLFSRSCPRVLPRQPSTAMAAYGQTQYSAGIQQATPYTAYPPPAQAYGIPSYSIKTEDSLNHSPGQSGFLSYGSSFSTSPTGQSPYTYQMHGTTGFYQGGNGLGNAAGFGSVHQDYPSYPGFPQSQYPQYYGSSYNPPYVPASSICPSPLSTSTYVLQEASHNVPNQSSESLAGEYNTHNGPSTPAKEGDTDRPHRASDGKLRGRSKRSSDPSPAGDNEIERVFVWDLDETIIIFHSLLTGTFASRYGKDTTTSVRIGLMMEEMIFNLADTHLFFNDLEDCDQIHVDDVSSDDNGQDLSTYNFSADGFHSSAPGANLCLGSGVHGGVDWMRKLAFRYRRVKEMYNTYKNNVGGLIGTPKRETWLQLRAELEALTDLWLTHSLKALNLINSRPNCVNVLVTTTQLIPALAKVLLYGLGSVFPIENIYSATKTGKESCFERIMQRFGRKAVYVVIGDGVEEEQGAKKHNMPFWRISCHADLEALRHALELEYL
Sequence of UniProt O00311 (whole entry, looked up): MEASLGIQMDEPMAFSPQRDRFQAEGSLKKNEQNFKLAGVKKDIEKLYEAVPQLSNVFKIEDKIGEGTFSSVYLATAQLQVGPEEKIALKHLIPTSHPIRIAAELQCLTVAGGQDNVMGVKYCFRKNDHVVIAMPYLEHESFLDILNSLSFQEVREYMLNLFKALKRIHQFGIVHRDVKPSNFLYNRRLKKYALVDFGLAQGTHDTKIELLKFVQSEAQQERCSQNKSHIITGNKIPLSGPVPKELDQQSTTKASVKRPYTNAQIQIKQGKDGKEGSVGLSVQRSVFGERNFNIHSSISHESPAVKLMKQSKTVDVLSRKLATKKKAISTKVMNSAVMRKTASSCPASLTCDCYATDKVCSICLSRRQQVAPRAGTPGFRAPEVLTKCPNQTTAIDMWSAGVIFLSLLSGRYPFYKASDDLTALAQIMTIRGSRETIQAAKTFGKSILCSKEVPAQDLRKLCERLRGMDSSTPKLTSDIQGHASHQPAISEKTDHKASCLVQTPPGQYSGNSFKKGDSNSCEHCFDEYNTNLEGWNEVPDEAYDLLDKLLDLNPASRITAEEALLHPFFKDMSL
Sequence of UniProt P17086 (whole entry, looked up): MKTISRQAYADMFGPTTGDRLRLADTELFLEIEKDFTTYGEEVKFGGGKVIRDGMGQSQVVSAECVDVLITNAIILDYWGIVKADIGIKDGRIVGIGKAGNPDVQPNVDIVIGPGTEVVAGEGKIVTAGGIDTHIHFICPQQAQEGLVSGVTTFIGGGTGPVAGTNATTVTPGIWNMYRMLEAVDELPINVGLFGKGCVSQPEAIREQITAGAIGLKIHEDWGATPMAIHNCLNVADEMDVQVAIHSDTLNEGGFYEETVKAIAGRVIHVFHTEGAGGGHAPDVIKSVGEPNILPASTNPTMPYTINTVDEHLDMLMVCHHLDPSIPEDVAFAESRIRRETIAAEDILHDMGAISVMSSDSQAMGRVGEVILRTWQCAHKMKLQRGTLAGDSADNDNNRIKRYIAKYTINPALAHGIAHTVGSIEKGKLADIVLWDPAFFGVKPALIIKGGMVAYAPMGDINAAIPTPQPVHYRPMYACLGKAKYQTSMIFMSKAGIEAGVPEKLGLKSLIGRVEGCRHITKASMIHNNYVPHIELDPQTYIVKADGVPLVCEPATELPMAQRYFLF
Sequence of UniProt P10636 (whole entry, looked up): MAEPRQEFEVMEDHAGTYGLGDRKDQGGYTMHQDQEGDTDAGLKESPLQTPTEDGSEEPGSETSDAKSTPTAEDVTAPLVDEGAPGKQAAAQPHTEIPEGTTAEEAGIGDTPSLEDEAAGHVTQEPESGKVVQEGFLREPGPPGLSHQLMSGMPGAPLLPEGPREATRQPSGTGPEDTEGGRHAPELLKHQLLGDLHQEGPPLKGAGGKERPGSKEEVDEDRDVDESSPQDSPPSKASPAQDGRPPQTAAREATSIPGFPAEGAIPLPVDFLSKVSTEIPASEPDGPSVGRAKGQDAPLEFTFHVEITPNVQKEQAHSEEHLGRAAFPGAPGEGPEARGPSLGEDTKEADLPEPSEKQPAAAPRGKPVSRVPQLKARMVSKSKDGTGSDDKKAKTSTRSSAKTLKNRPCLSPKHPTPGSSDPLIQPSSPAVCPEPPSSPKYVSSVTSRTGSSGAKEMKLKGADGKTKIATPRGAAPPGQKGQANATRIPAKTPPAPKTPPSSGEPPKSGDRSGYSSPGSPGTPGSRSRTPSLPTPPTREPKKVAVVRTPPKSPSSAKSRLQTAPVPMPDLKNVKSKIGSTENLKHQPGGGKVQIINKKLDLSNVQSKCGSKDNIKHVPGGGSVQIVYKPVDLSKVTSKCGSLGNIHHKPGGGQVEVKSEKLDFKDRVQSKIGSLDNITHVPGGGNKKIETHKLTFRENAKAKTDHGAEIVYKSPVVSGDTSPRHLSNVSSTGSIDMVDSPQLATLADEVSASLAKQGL
Sequence of UniProt P23025 (whole entry, looked up): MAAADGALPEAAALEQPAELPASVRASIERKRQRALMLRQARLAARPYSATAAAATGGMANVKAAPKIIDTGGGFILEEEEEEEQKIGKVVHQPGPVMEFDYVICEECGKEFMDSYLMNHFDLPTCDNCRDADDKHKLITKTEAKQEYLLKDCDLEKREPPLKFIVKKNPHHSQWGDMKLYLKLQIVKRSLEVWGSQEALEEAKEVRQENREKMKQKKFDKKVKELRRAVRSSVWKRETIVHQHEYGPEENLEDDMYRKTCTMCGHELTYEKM

Molecule = O=P(O)(O)OC(CO)CO; tested on = Protein phosphatase EYA2 (Homo sapiens, UniProt O00167); endpoint = IC50; value = 8200 µM
Molecule = c1nc2c(NCC3CCC(CNCCCNC4CCCCC4)CC3)nc(N3CCNCC3)nc2[nH]1 (stereo not drawn); tested on = CXCR4; test = reporter gene, antagonist; endpoint = IC50; value = 5.51e-05 µM
Molecule = Tannic acid; tested on = Genome polyprotein, NS2B-NS3 protease (Dengue virus type 3, UniProt P27915); test = inhibitor, fluorogenic substrate Bz-Nle-Lys-Arg-Arg-AMC; test system = DENV3; endpoint = IC50; value = 0.4 ± 0.03 µM
Molecule = CCCCCCCOC(=O)c1ccc(O)cc1; tested on = Fatty-acid amide hydrolase 1 (FAAH, Homo sapiens, UniProt O00519); test = enzyme activity, inhibitor, fluorescence; conditions = with preincubation; endpoint = IC50; value = 0.15 µM
Molecule = O=C(Nc1cc(F)c(Cl)c(F)c1)c1cc(S(=O)(=O)N2CCOCC2)c(Cl)cc1Cl; tested on = Lysophosphatidic acid receptor 3 (LPAR3, Homo sapiens, UniProt Q9UBY5); test = Ca2+ mobilization, antagonist; test system = RH7777; conditions = with: LPA at EC50; endpoint = IC50; value = > 100 µM
Molecule = COc1ccc(OCC2=C(C)C(=O)c3ccccc3C2=O)cc1C(F)(F)F; tested on = Thioredoxin reductase 1, cytoplasmic (TXNRD1, Homo sapiens, UniProt Q16881); test = enzyme activity, inhibitor; conditions = pH 7.4, with preincubation; endpoint = IC50; value = 0.8 µM
Molecule = CN1CCN(CCCN2c3ccccc3Sc3ccc(C(F)(F)F)cc32)CC1; tested on = USP46, with UAF1 (Homo sapiens, UniProt P62068); test = deubiquitinase activity, inhibitor; conditions = no inhibition up to 114 µM, with: K63-linked diubiquitin; endpoint = IC50; value = > 114 µM
Molecule = c1nc2c(NCc3ccc(CNCCCNC4CCCCC4)cc3)nc(N3CCNCC3)nc2[nH]1; tested on = CXCR4; test = ligand displacement, radioligand; conditions = cell membranes; endpoint = IC50; value = 0.0181 µM
Molecule = O=c1[nH]c2ccccc2n1C1CCN(CCCC(c2ccc(F)cc2)c2ccc(F)cc2)CC1; tested on = Multidrug resistance-associated protein 1 (ABCC1, Homo sapiens, UniProt P33527); test = efflux, inhibitor; test system = SupT1-Vin overexpressing ABCC1; conditions = with: SYTO 16 100 nM; endpoint = IC50; value = 3.3 ± 0.4 µM
Molecule = O=C(O[C@@H]1Cc2c(O)cc(O)cc2O[C@@H]1c1cc(O)c(=O)c2c(O)c(O)cc([C@H]3Oc4cc(O)cc(O)c4C[C@H]3O)c2c1)c1cc(O)c(O)c(O)c1; tested on = Cell division cycle 7-related protein kinase, with DBF4 (CDC7, Homo sapiens, UniProt O00311); test = enzyme activity, inhibitor, ADP-Glo luminescence; conditions = with: ATP 12.5 µM; endpoint = IC50; value = 4.27 ± 0.53 µM
Molecule = C[C@@H](CNCc1ccccc1)N1C[C@H](CCCNC(=N)N)N(CCc2cccc(F)c2)C1=S; tested on = Neuropeptide Y receptor type 5 (NPY5R, Homo sapiens, UniProt Q15761); test = receptor activation, antagonist, FLIPR; endpoint = IC50; value = > 10 µM
Molecule = O=C(O)c1ccc(OCCCc2ccc(OCCCCOC3CCCCC3)cc2)c(C(=O)NC2CCCC(C(=O)O)C2)c1 (stereo not drawn); tested on = Uracil nucleotide/cysteinyl leukotriene receptor, long isoform (GPR17, Homo sapiens, UniProt Q13304); test = beta-arrestin recruitment, antagonist, PathHunter; test system = U2OS; endpoint = IC50; value = 14.6 µM
Molecule = C#Cc1ccc2ccc(=O)oc2c1; tested on = Cytochrome P450 1A2 (CYP1A2, Homo sapiens, UniProt P05177); test = enzyme activity, inhibitor; conditions = 6 min, pH 7.6; endpoint = IC50; value = 15.8 µM
Molecule = Cc1ccc(N2CN(CC(=O)Nc3cccc(Cl)c3)S(=O)(=O)c3cccnc32)cc1; tested on = Tyrosine--tRNA ligase 1 (tyrS1, Pseudomonas aeruginosa, UniProt Q9HWP3); test = tRNA aminoacylation, scintillation proximity; conditions = TyrRS-S; endpoint = IC50; value = 65 µM
Molecule = O=C1c2ccccc2-c2nc3nnnn3nc21; tested on = HeLa expressing Luc-ODC; test = Luc-ODC degradation, inhibitor, cycloheximide chase luciferase; endpoint = IC50; value = 3 ± 1 µM
Molecule = CC(=O)NO; tested on = Urease subunit alpha, with UreA, UreB (ureC, Proteus mirabilis, UniProt P17086); test = whole-cell urease activity, inhibitor; conditions = 15 min preincubation, pH 5.5, 37 °C, with: 5 mM urea; endpoint = IC50; value = 64.6 ± 3 µM
Molecule = Cc1ccc(S(=O)(=O)/C=C/C#N)cc1; tested on = HEK293 NF-κB luciferase reporter; test = NF-κB reporter gene, antagonist; conditions = 24 h, with: TNFα 5 ng/mL; endpoint = EC50; value = 16.9 µM
Molecule = Cc1ccc(NC2=CC(=O)c3sc(C)nc3C2=O)cc1; tested on = HeLa expressing Luc-ODC; test = Luc-ODC degradation, inhibitor, cycloheximide chase luciferase; endpoint = IC50; value = 7.2 ± 2.3 µM
Molecule = CC1=C(CO)C(=O)O[C@@H]([C@@H](C)[C@H]2CC[C@H]3[C@@H]4C[C@H]5O[C@]56[C@@H](O)C=CC(=O)[C@]6(C)[C@H]4CC[C@]23C)C1; tested on = C2C12 myoblasts; test = NF-κB reporter gene, inhibitor; conditions = 24 h pretreatment, with: TNF-α 10 ng/mL, 24 h; endpoint = IC50; value = 0.562 µM
Molecule = O=C(c1ccc(Nc2nccc(-c3cc4ccccc4s3)n2)cc1)N1CCC(N2CCCC2)CC1; tested on = HEK293 NF-κB luciferase reporter; test = NF-κB reporter gene, antagonist; conditions = 24 h, with: TNFα 5 ng/mL; endpoint = EC50; value = 0.852 µM
Molecule = CC1=NN(c2cccc(C(=O)O)c2)C(=O)/C1=C\c1ccc(-c2ccc(Cl)c(C(=O)NC3CC3)c2)o1; tested on = DNA repair protein complementing XP-A cells (Homo sapiens, UniProt P23025); test = binding to cisplatin-DNA, EMSA; conditions = concentration not given, full-length XPA; endpoint = IC50; value = ~32 µM
Molecule = CC(C)[C@H](NC(=O)[C@@H]1CCCN1C(=O)[C@H](CCCNC(=N)N)NC(=O)[C@H](CS)NC(=O)[C@H](Cc1c[nH]c2ccccc12)NC(=O)[C@H](CCCNC(=N)N)NC(=O)[C@@H](Cc1ccccc1)NC(=O)[C@H](Cc1c[nH]cn1)NC(=O)[C@H](CCC(=O)O)NC(=O)[C@H](CS)NC(=O)[C@H](CS)NC(=O)[C@H](CCCCN)NC(=O)[C@@H]1CC(=O)N[C@@H](CCCNC(=N)N)C(=O)N[C@@H](C)C(=O)N[C@@H](CC(=O)O)C(=O)N[C@H](Cc2ccc(O)cc2)C(=O)N1)C(N)=O [technetium-99m labelled]; test system = C57 mice, tumor; conditions = intravenous, 0.037 MBq, 0.5 h; endpoint = tissue uptake; value = 16.6 ± 1.91 %ID/g
Molecule = NC(=O)c1cccc2c1OC[C@H](CN1CCN(c3ncccn3)CC1)O2; tested on = Poly [ADP-ribose] polymerase 1 (PARP1, Homo sapiens, UniProt P09874); endpoint = IC50; value = > 5 µM
Molecule = COc1ccc(-c2ccc3c(c2)[nH]c2ccncc23)cc1; tested on = Microtubule-associated protein tau (MAPT, Homo sapiens, UniProt P10636); test = ligand displacement, radioligand; endpoint = IC50; value = 0.0347 µM
Molecule = C#C[C@]1(COP(=O)(O)OP(=O)(O)OP(=O)(O)O)O[C@@H](n2cnc3c(N)nc(F)nc32)C[C@@H]1O; tested on = human PBMC tumour model; test system = host not given, plasma; conditions = oral, 200 mg, single dose, fasted; endpoint = Tmax; value = 6 h
Molecule = COC(=O)[C@H](C)NC(=O)[C@H](C)NC(=O)[C@H](CCCCNC(C)=S)NC(=O)c1ccc([N+](=O)[O-])cc1; tested on = NAD-dependent protein deacetylase sirtuin-3, mitochondrial (SIRT3, Homo sapiens, UniProt Q9NTG7); test = enzyme activity, inhibitor; endpoint = IC50; value = 272 µM and > 100 µM
Molecule = C[C@H](N)C(=O)O; tested on = Methyl-accepting chemotaxis protein CtaA, sensing domain (Pseudomonas fluorescens, UniProt Q3K7T6); test = binding, thermal shift, zero heat capacity; endpoint = Kd; value = 8.9 ± 0.6 µM

For quick reference, copied from above:
Molecule = O=C(O[C@@H]1Cc2c(O)cc(O)cc2O[C@@H]1c1cc(O)c(=O)c2c(O)c(O)cc([C@H]3Oc4cc(O)cc(O)c4C[C@H]3O)c2c1)c1cc(O)c(O)c(O)c1; tested on = Cell division cycle 7-related protein kinase, with DBF4 (CDC7, Homo sapiens, UniProt O00311); test = enzyme activity, inhibitor, ADP-Glo luminescence; conditions = with: ATP 12.5 µM; endpoint = IC50; value = 4.27 ± 0.53 µM
Molecule = C[C@@H](CNCc1ccccc1)N1C[C@H](CCCNC(=N)N)N(CCc2cccc(F)c2)C1=S; tested on = Neuropeptide Y receptor type 5 (NPY5R, Homo sapiens, UniProt Q15761); test = receptor activation, antagonist, FLIPR; endpoint = IC50; value = > 10 µM
Molecule = O=C(O)c1ccc(OCCCc2ccc(OCCCCOC3CCCCC3)cc2)c(C(=O)NC2CCCC(C(=O)O)C2)c1 (stereo not drawn); tested on = Uracil nucleotide/cysteinyl leukotriene receptor, long isoform (GPR17, Homo sapiens, UniProt Q13304); test = beta-arrestin recruitment, antagonist, PathHunter; test system = U2OS; endpoint = IC50; value = 14.6 µM
